Experimental data collected from several papers.
Every numbered part comes from another study and shows a few of its results, in no order.
Chain of UniProt P22888 (whole entry, looked up): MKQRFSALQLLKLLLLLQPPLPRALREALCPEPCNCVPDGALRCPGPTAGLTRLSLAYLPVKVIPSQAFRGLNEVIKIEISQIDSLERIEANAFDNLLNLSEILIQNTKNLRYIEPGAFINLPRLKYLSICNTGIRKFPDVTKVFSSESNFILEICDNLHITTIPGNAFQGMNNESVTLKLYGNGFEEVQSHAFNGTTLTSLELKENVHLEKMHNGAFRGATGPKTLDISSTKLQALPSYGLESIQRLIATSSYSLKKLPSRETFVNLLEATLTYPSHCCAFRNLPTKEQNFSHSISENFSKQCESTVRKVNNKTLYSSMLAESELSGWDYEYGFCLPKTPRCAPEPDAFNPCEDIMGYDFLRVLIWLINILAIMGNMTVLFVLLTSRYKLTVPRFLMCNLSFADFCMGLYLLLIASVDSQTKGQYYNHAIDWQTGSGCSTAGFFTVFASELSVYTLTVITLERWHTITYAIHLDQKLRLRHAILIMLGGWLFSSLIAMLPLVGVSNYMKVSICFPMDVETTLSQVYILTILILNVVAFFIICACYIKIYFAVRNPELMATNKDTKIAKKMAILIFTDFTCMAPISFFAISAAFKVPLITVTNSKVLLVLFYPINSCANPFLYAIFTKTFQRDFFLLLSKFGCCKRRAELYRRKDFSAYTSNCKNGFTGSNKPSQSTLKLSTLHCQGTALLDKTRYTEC
Chain of UniProt P30874 (whole entry, looked up): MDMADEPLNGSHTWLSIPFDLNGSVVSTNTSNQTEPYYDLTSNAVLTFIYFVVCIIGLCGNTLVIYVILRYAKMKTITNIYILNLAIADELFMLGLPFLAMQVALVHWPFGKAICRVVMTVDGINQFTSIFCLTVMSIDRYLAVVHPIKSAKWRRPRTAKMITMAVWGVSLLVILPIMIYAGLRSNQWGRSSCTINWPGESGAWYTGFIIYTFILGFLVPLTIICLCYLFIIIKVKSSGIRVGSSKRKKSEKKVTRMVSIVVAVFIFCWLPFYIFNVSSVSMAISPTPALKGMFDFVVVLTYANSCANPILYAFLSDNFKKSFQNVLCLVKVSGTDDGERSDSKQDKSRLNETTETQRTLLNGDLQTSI
Chain of UniProt Q9H3Y6 (whole entry, looked up): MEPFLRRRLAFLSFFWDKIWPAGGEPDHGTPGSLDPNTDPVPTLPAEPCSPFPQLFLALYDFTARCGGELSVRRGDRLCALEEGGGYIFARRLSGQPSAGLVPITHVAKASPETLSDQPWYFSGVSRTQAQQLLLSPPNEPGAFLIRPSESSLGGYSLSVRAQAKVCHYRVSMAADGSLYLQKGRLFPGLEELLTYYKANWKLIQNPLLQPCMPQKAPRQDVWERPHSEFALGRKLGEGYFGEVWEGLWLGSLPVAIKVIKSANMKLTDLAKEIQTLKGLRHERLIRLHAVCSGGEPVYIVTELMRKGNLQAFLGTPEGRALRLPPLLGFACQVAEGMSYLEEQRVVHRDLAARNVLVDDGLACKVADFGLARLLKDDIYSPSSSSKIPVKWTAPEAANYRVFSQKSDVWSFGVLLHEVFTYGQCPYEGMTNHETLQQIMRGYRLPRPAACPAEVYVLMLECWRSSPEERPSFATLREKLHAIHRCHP
Chain of UniProt P42336 (whole entry, unmodified, looked up): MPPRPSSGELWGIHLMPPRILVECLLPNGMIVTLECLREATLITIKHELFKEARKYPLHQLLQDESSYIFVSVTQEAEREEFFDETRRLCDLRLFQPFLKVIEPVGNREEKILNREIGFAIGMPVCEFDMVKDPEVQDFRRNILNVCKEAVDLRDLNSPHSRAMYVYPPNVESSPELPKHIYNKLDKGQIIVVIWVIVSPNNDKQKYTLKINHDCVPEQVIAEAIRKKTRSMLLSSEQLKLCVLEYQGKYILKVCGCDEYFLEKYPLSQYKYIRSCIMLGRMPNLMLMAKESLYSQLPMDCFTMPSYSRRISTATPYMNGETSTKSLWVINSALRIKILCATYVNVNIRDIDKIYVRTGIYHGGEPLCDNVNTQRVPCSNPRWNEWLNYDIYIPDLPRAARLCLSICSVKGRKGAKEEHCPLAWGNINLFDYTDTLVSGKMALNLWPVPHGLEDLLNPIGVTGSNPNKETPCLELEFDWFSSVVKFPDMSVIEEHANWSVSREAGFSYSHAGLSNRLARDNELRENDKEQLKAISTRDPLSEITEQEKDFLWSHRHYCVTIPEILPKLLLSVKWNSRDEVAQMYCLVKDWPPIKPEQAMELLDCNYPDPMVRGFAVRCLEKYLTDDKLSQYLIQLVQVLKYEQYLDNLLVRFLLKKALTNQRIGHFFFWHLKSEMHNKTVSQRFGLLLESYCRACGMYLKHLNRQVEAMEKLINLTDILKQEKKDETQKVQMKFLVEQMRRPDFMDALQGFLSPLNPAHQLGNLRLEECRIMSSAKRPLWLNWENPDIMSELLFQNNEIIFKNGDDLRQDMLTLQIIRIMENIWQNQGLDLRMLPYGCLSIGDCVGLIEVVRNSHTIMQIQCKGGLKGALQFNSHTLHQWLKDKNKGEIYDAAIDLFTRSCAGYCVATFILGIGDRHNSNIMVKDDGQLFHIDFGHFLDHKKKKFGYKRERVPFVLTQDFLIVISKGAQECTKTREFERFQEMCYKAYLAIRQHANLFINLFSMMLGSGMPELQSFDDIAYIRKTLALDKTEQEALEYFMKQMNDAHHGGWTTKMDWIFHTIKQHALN
Chain of UniProt Q8IU85 (whole entry, looked up): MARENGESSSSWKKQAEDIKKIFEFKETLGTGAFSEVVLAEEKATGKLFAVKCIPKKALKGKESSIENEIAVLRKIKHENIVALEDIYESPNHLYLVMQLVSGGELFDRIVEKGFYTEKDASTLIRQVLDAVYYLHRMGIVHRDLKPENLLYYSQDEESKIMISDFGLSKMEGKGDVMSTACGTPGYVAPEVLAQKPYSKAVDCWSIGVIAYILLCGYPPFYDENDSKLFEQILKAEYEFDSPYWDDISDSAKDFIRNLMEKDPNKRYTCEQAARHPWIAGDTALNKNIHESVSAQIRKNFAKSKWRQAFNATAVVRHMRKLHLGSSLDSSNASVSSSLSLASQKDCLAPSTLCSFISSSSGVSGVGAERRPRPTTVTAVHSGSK
Chain of UniProt O95819 (whole entry, looked up): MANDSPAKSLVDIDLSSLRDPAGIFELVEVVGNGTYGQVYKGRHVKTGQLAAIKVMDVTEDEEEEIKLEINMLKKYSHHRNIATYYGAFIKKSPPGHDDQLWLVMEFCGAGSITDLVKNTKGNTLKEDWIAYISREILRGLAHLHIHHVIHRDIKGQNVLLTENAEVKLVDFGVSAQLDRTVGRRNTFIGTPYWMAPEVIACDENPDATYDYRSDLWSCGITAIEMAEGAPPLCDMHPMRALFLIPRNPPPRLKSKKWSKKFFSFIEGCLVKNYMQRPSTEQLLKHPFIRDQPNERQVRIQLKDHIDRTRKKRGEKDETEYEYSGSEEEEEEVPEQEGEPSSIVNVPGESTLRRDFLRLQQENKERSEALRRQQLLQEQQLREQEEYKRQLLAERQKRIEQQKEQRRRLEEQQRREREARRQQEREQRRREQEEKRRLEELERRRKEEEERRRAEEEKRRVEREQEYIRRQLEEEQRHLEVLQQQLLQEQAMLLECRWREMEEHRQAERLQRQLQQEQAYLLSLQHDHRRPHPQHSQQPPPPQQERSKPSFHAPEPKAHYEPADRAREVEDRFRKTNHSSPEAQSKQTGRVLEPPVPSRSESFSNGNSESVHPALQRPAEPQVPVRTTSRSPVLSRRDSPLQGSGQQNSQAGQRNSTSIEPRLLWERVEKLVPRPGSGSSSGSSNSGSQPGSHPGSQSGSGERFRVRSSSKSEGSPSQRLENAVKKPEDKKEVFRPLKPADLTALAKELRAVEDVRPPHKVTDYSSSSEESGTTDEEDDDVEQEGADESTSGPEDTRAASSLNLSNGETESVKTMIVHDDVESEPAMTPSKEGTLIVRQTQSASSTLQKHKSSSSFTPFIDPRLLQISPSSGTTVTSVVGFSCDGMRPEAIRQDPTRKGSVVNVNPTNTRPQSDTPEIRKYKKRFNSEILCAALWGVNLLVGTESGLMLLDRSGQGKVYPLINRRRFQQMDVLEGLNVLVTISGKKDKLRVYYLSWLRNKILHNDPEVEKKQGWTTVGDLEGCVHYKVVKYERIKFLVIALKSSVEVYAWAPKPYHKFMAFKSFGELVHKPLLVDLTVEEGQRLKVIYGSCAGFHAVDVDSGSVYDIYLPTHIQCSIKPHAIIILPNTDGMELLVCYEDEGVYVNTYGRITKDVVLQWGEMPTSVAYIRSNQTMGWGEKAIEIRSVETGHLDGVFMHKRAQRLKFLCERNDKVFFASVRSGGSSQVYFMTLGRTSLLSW
Chain of UniProt Q13554 (whole entry, looked up): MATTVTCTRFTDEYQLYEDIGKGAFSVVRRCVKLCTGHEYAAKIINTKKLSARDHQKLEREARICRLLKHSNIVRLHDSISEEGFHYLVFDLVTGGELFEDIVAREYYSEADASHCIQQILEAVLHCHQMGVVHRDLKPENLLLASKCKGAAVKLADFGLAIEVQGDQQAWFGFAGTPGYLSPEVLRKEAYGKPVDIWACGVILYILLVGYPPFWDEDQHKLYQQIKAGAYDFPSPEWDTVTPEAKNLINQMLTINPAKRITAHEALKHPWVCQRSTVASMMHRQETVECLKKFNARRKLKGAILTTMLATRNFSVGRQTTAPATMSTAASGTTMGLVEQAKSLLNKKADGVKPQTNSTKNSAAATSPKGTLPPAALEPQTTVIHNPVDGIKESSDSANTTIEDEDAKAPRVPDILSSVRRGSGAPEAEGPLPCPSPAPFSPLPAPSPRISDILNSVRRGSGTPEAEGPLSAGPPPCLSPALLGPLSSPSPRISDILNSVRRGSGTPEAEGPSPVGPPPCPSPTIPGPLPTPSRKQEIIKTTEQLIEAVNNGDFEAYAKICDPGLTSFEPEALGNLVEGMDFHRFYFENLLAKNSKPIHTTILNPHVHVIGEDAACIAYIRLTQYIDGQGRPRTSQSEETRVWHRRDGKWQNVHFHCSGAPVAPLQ

Set 1
Compound: CCc1[nH]c(-c2ccc(OC)cc2)nc1-c1ccncc1
Observed: enzyme activity
Action: inhibitor
Tested at: 0.5 µM
Relative to: control
target | remaining activity [%]
Cyclin-dependent kinase 1, with cyclin B (CDK1, Homo sapiens, UniProt P06493) | 102
Tyrosine-protein kinase Srms (SRMS, Homo sapiens, UniProt Q9H3Y6) | 106
Ephrin type-B receptor 1 (EPHB1, Homo sapiens, UniProt P54762) | 104
Tyrosine-protein kinase receptor UFO (AXL, Homo sapiens, UniProt P30530) | 99.9
Calcium/calmodulin-dependent protein kinase type II subunit beta (CAMK2B, Homo sapiens, UniProt Q13554) | 97.1
Homeodomain-interacting protein kinase 2 (HIPK2, Homo sapiens, UniProt Q9H2X6) | 93.6
Phosphorylase b kinase gamma catalytic chain, skeletal muscle/heart isoform (PHKG1, Homo sapiens, UniProt Q16816) | 97
Dual specificity tyrosine-phosphorylation-regulated kinase 3 (DYRK3, Homo sapiens, UniProt O43781) | 95.5

Set 2
Structure (SMILES): Cc1c[nH]c2nccc(Oc3c(F)cc(Nc4cc(Cl)nc(N)n4)cc3F)c12
Observed: cell-free assay
Method: competition with immobilised ligand
Tested at: 0.1 µM
target | remaining binding [%]
Activin receptor type-1B (ACVR1B, Homo sapiens, UniProt P36896) | 87
Ankyrin repeat and protein kinase domain-containing protein 1 (ANKK1, Homo sapiens, UniProt Q8NFD2) | 85
Phosphatidylinositol 4,5-bisphosphate 3-kinase catalytic subunit alpha isoform (PIK3CA, Homo sapiens, UniProt P42336, C420R) | 89
Serine/threonine-protein kinase RIO2 (RIOK2, Homo sapiens, UniProt Q9BVS4) | 85
Serine/threonine-protein kinase 26 (STK26, Homo sapiens, UniProt Q9P289) | 100
Hepatocyte growth factor receptor (MET, Homo sapiens, UniProt P08581, Y1235D) | 88
Serine/threonine-protein kinase NLK (NLK, Homo sapiens, UniProt Q9UBE8) | 100
Tyrosine-protein kinase ABL1, non-phosphorylated (ABL1, Homo sapiens, UniProt P00519, F317L) | 84
Dual specificity protein kinase CLK4 (CLK4, Homo sapiens, UniProt Q9HAZ1) | 86
Receptor-type tyrosine-protein kinase FLT3 (FLT3, Homo sapiens, UniProt P36888, D835Y) | 63
Mast/stem cell growth factor receptor Kit (KIT, Homo sapiens, UniProt P10721, V559D) | 90
Phosphatidylinositol 4-kinase beta (PI4KB, Homo sapiens, UniProt Q9UBF8) | 97
Dual specificity protein kinase CLK1 (CLK1, Homo sapiens, UniProt P49759) | 83
Cyclin-dependent kinase 5 (CDK5, Homo sapiens, UniProt Q00535) | 94
Death-associated protein kinase 1 (DAPK1, Homo sapiens, UniProt P53355) | 98
Leucine-rich repeat serine/threonine-protein kinase 2 (LRRK2, Homo sapiens, UniProt Q5S007) | 100
Cyclin-dependent kinase-like 2 (CDKL2, Homo sapiens, UniProt Q92772) | 93
Peripheral plasma membrane protein CASK (CASK, Homo sapiens, UniProt O14936) | 98
Testis-specific serine/threonine-protein kinase 1 (TSSK1B, Homo sapiens, UniProt Q9BXA7) | 95
Calcium/calmodulin-dependent protein kinase type 1D (CAMK1D, Homo sapiens, UniProt Q8IU85) | 94
Vascular endothelial growth factor receptor 1 (FLT1, Homo sapiens, UniProt P17948) | 100
Mitogen-activated protein kinase kinase kinase kinase 4 (MAP4K4, Homo sapiens, UniProt O95819) | 94
Tyrosine-protein kinase ABL2 (ABL2, Homo sapiens, UniProt P42684) | 86
Cyclin-dependent kinase 4, with cyclin D3 (CDK4, Homo sapiens, UniProt P11802) | 100
RAC-gamma serine/threonine-protein kinase (AKT3, Homo sapiens, UniProt Q9Y243) | 78

Set 3
SMILES: CCN(c1nc(N)c(C(=O)N=C(N)N)nc1Cl)C(C)C
Observed: β-arrestin recruitment
Action: agonist
Method: PRESTO-Tango
Tested at: 10 µM
Relative to: untreated
target | fold over basal
5-hydroxytryptamine receptor 7 (HTR7, Homo sapiens, UniProt P34969) | 0.49
G-protein coupled receptor 6 (Homo sapiens, UniProt P46095) | 1.1
Histamine H1 receptor (HRH1, Homo sapiens, UniProt P35367) | 0.9 fold
ADGRG1 (Homo sapiens, UniProt Q9Y653) | 0.88
Neuromedin-U receptor 1 (NMUR1, Homo sapiens, UniProt Q9HB89) | 1.41
C3a anaphylatoxin chemotactic receptor (C3AR1, Homo sapiens, UniProt Q16581) | 0.96
Somatostatin receptor type 2 (SSTR2, Homo sapiens, UniProt P30874) | 0.33
G-protein coupled receptor 84 (GPR84, Homo sapiens, UniProt Q9NQS5) | 1.21
Metabotropic glutamate receptor 7 (GRM7, Homo sapiens, UniProt Q14831) | 1.01 fold
Lutropin-choriogonadotropic hormone receptor (LHCGR, Homo sapiens, UniProt P22888) | 1.16 fold
P2Y purinoceptor 12 (P2RY12, Homo sapiens, UniProt Q9H244) | 1.14
ADGRF1 (Homo sapiens, UniProt Q5T601) | 0.91

Set 4
Organism: Sarcocystis neurona
Observed: parasite growth
Tested at: 10 µM
Time: 96 h
Relative to: untreated
Structure (SMILES) | log2 fold change
COc1ccnc(C[S+]([O-])c2nc3ccc(OC(F)F)cc3[nH]2)c1OC (stereo not drawn) | 0.53
S=c1[nH]cnc2nc[nH]c12 | -0.66
CCCN(CCC)S(=O)(=O)c1ccc(C(=O)O)cc1 | 0.34
Cc1nc2n(c(=O)c1CCN1CCC(c3noc4cc(F)ccc34)CC1)CCCC2 | -0.0641
O=C1CC2(CCCC2)CC(=O)N1CCCCN1CCN(c2ncccn2)CC1 | 0.32
CCOC(=O)c1ncn2c1CN(C)C(=O)c1cc(F)ccc1-2 | 0.25
O=C(NCCN1CCOCC1)c1ccc(Cl)cc1 | 0.41
COc1cc(NC(C)CCCN)c2ncccc2c1 (stereo not drawn) | -6.28
COc1cc([C@@H]2c3cc4c(cc3[C@H](O)[C@H]3COC(=O)[C@H]23)OCO4)cc(OC)c1OC | -0.69
COc1ccc(/C=C/C(=O)Nc2ccccc2C(=O)O)cc1OC | -1.06
CC[C@H]1OC(=O)[C@H](C)[C@@H](O[C@H]2C[C@@](C)(OC)[C@@H](O)[C@H](C)O2)[C@H](C)[C@@H](O[C@@H]2O[C@H](C)C[C@H](N(C)C)[C@H]2O)[C@](C)(O)C[C@@H](C)CN(C)[C@H](C)[C@@H](O)[C@]1(C)O | -0.0368
O=C(CCCN1CC=C(n2c(=O)[nH]c3ccccc32)CC1)c1ccc(F)cc1 | -0.67

Repeated from above (set 2):
target | remaining binding [%]
Phosphatidylinositol 4-kinase beta (PI4KB, Homo sapiens, UniProt Q9UBF8) | 97
Peripheral plasma membrane protein CASK (CASK, Homo sapiens, UniProt O14936) | 98
Mast/stem cell growth factor receptor Kit (KIT, Homo sapiens, UniProt P10721, V559D) | 90
Serine/threonine-protein kinase NLK (NLK, Homo sapiens, UniProt Q9UBE8) | 100
